Measurements gathered from unrelated publications.
Parts stem from different laboratories: compare values within a part only. “And” joins repeats or separate records; there may be more than shown. Positions count from the first letter of the parent shown.

Series 1
Target: 5-hydroxytryptamine receptor 2A (HTR2A, Homo sapiens, UniProt P28223)
Chain of UniProt P28223 (whole entry, looked up): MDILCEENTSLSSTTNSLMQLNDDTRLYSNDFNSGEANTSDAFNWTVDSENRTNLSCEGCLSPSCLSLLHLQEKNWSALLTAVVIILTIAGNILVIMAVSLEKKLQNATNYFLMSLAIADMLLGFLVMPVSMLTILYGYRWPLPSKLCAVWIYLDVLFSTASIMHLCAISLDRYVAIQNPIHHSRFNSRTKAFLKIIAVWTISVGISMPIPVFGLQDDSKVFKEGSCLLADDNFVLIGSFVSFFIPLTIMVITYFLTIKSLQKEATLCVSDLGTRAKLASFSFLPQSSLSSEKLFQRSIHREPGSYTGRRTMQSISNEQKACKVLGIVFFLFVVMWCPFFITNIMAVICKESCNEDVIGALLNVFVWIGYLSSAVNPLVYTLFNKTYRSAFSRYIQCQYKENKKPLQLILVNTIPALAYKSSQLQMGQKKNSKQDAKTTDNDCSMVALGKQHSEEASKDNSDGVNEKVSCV
Read-out: ligand displacement
Tested at: 10 µM
Endpoint: inhibition
CC1=C(C#N)C(c2ccc3c(c2)c(NC(=O)c2ccccc2C)nn3C)C(C#N)=C(C)N1: 8.41%
CN1CCN(c2cnc3c(C4CCN(C(=O)c5ccc(OC(F)(F)F)cc5N)CC4)ncnc3c2)CC1: 4.33%
CCC(=NO)C(C)=Cc1ccc(F)c(C)c1: 40.8%
N#CC1(c2ccccn2)CCN(Cc2cc(C(=O)O)c(=O)n3ccccc23)CC1: -17%
O=C(NNS(=O)(=O)c1ccccc1F)c1cc(F)cc(-c2ccccn2)c1: -7.37%
CN1C(=O)[C@@H](N2CCc3cn(Cc4ccccc4)nc3C2=O)COc2ccccc21: 3.8%
Cn1cncc1[C@@](O)(COc1ccc(C#N)cc1-c1ccc(OC(F)(F)F)cc1)c1ccc(C#N)cc1: -4.18%
COc1cc(-c2cn(C3CCc4c(F)cccc4N(CC(F)(F)F)C3=O)nn2)ccc1-n1cnc(C)c1 (stereo not shown): 11.5%
CCC(=O)N[C@H]1CC[C@@H](C(=O)N(C)c2ccc(-c3nc4ccccc4o3)cc2)C1: 2.34%
CN(C)C(=O)c1sc2nc(N3CCC(S(C)(=O)=O)CC3)cc(C(F)(F)F)c2c1N: -1.79%
COc1cc(C(=O)O)ncc1C#Cc1ccccc1NS(=O)(=O)c1cccc2c(N(C)C)ccnc12: 9.61%
CN(C)[C@H]1CCN(c2cc(-c3ccccc3)nc3ccnn23)C1: 23.5%
CO[C@H]1CC[C@H](CNc2ccc(S(=O)(=O)NC(=O)c3ccc(N4CCN(CC5=C(c6ccc(Cl)cc6)CC(C)(C)CC5)CC4)cc3Oc3cnc4[nH]ccc4c3)cc2[N+](=O)[O-])CC1: 12.7%
CC[C@H](CC(=O)O)n1c(=O)c2ncccc2n(Cc2cn(C)c3cc(C)cc(C)c23)c1=O: 0.22%

Series 2
Target: CCNB3, cyclin fold, Cln2 fusion (human)
Technique: yeast growth competition, sequencing
Medium: yeast
Notes: strong parent motif
Relative to: not given
Reading: higher = stronger binding
Endpoint: normalised enrichment score
Starting sequence: viral docking peptide; KGVKRKLFAEDSS
KGVKVKLFAEDSS [R5V]: 0.328
KGVQRKLFAEDSS [K4Q]: 1.03
KGVKRKLKAEDSS [F8K]: 0.223
KGVKRWLFAEDSS [K6W]: 0.206
KGQKRKLFAEDSS [V3Q]: 0.15
KGVKEKLFAEDSS [R5E]: 0.31
KGVKRKLFAEDNS [S12N]: 3.24
KGVKRKLFAQDSS [E10Q]: 1.6

Other studies, line by line
HLA class I histocompatibility antigen, B alpha chain allele B*46:01: HLA class I histocompatibility antigen, B alpha chain, allele B*46:01 (Homo sapiens, UniProt P01889)
FSLPAQLL  binding (HLA class I histocompatibility antigen, B alpha chain allele B*46:01; peptide-MHC binding; peptide; concentration not given): inactive
CCCN(CCC)C1CCc2ccc(O)cc2C1 (stereo not shown)  nuclear SOX9 intensity (mouse MPNST tumor cells; high-content immunofluorescence imaging, measured: nuclear SOX9; 10 µM, 12 h, mean of 2 replicates; relative to: DMSO control, higher = more nuclear SOX9): 107 % of DMSO
c1ccc(Cn2ccnc2)cc1  inhibition (Sarcocystis neurona; parasite growth; 10 µM, 96 h): -9.6%
KTDEVVTL  binding (HLA class I histocompatibility antigen, B alpha chain allele B*46:01; peptide-MHC binding; peptide; concentration not given): inactive
CC(C)S(=O)(=O)c1cc2c(Nc3ccc4sc(C5CCCC5)nc4c3)ccnc2cc1OCCO  cell survival (HT-29; necroptosis, CCK-8; 0.00457 µM, with: TNF-α, Smac mimetic, z-VAD): 24.3% and 25.2% and 24.2%
NC(=O)OCCCc1ccccc1  inhibition (Sarcocystis neurona; parasite growth; 10 µM, 96 h): -19.1%

For quick reference, copied from above (other studies, line by line):
CC(C)S(=O)(=O)c1cc2c(Nc3ccc4sc(C5CCCC5)nc4c3)ccnc2cc1OCCO  cell survival (HT-29; necroptosis, CCK-8; 0.00457 µM, with: TNF-α, Smac mimetic, z-VAD): 24.3% and 25.2% and 24.2%
NC(=O)OCCCc1ccccc1  inhibition (Sarcocystis neurona; parasite growth; 10 µM, 96 h): -19.1%
